Assay results gathered from unrelated publications.
Lines come from different studies, so protocols differ. ± marks the error that the study gave.
HTR1A: 5-hydroxytryptamine receptor 1A (HTR1A, Homo sapiens, UniProt P08908)
Sequence of UniProt P08908 (whole entry, looked up): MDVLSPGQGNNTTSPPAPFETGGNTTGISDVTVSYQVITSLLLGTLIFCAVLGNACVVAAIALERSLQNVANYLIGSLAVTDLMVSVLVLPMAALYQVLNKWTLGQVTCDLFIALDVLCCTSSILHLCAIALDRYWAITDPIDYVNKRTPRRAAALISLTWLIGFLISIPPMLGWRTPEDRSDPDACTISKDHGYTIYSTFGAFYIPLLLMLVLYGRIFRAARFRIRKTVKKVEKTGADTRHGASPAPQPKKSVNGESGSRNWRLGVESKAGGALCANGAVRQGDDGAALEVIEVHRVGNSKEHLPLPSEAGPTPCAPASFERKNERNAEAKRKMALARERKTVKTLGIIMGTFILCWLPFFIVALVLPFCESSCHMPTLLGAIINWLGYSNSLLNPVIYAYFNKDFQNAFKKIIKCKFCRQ
Nuclear receptor subfamily 2 group C member 2 ligand-binding domain: Nuclear receptor subfamily 2 group C member 2, ligand-binding domain (Homo sapiens, UniProt P49116)
Sequence of UniProt P49116 (whole entry, looked up): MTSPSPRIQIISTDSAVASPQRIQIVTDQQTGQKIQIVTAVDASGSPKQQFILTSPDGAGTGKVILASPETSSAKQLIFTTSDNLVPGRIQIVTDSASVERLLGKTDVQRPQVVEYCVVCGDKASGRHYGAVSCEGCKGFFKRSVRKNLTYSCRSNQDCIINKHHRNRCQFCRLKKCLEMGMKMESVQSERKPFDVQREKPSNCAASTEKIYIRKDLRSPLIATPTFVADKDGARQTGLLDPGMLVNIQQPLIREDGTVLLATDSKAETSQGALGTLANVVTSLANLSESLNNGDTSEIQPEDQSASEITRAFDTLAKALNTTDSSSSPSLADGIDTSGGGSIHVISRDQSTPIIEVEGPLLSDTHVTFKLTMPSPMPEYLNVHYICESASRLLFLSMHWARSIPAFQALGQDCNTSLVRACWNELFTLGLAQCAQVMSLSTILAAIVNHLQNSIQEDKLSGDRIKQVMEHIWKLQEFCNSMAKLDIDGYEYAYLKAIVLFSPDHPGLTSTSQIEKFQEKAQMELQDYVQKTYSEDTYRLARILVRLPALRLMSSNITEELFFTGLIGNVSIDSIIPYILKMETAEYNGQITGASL

SMILES	target or system	test	test system	conditions	quantity	value
O=C(NO)c1ccc(CN2CCCCc3ccccc32)c(F)c1	HTR1A	radioligand binding, PDSP radioligand binding	–	10 µM	inhibition	-26.4%
O=C(CN1CCO[C@@H](COc2cccnc2)C1)N1CCc2ccccc21	HTR1A	radioligand binding	–	concentration not given, with: [3H]8-OH-DPAT	inhibition	30.4%
c1cc(N2CCN(CCCOc3ccc(CN4CCOCC4)cc3)CC2)c2ccsc2c1	HTR1A	–	–	10 µM	inhibition	99.6 ± 1.8%
COc1cc(Cl)c(C(=O)N[C@@H](CN[C@H]2CC[C@@H](N)CC2)Cc2ccc(C#N)cc2)cc1-c1ccc(CN[C@H](C)c2ccc(C)cc2)o1	HTR1A	agonist response, antagonist	human cells	10 µM, 5-HT1A antagonist	inhibition	15%
COc1cc2c(cc1OC)C(=O)N(CCCCN1CCN(c3ccccc3OC)CC1)C2	HTR1A	radioligand binding	–	concentration not given, with: [3H]8-OH-DPAT	inhibition	93.3%
O=C(O)C(Cc1c[nH]c2ccccc12)N1C(=O)c2ccccc2C1=O (stereo not shown)	OCI-Ly1	–	–	0.5 µM, 120 h	viability	168%
CCS(=O)(=O)c1nc(S(=O)(=O)c2ccccc2Cl)c(N2CCN(C)C(=O)[C@H]2C)s1	HTR1A	–	–	10 µM	inhibition	18.4%
COC(=O)CCc1ccc(OCC(O)CNC(C)C)cc1 (stereo not shown)	Nuclear receptor subfamily 2 group C member 2 ligand-binding domain	SPR imaging	–	–	Kd	0.0442 nM
Cc1[nH]c2ccccc2c1CCNCc1ccc(/C=C/C(=O)NO)cc1	OCI-Ly1	–	–	0.1 µM, 120 h	viability	0.864%
O=C(CN1CCO[C@H](COc2ccccc2)C1)N1CCc2ccccc21	HTR1A	radioligand binding	–	concentration not given, with: [3H]8-OH-DPAT	inhibition	47.6%
CN(C(=O)n1cnc(-c2ccc[n+]([O-])c2)c1)C1CCCCC1	HTR1A	binding	–	10 µM	inhibition	12.6%
OCCCN1CC[C@@H]2C[C@H]1c1cc(-c3ccc(C(F)(F)F)cc3)ccc12	HTR1A	radioligand binding, PDSP competition binding	–	10 µM	inhibition	< 50%
COc1cc(NC(C)CCCN)c2ncccc2c1 (stereo not shown)	Nuclear receptor subfamily 2 group C member 2 ligand-binding domain	SPR imaging	–	–	Kd	16.3 nM

Excerpt of the above:
SMILES	target or system	test	test system	conditions	quantity	value
COc1cc(NC(C)CCCN)c2ncccc2c1 (stereo not shown)	Nuclear receptor subfamily 2 group C member 2 ligand-binding domain	SPR imaging	–	–	Kd	16.3 nM
